Assay results pooled from the literature.
Lines come from different studies, so protocols differ. Numbers after ± are the reported error.

| SMILES | assay | system | conditions | how to read | endpoint | result |
| --- | --- | --- | --- | --- | --- | --- |
| CC[C@H](C)[C@H](NC(=O)[C@H](CC(C)C)NC(=O)[C@H](Cc1c[nH]c2ccccc12)NC(=O)[C@H](C)NC(=O)[C@@H](NC(=O)[C@H](Cc1ccccc1)NC(=O)[C@H](CC(=O)O)NC(=O)[C@H](CCCNC(=N)N)NC(=O)[C@H](C)NC(=O)[C@H](C)NC(=O)[C@H](CC(C)C)NC(=O)[C@H](C)NC(=O)[C@H](CC(=O)O)NC(=O)[C@H](CC(C)C)NC(=O)[C@@H](NC(=O)[C@@H](NC(=O)[C@H](C)NC(=O)[C@H](CC(C)C)NC(=O)[C@H](CCC(=O)O)NC(=O)[C@H](CO)NC(=O)[C@H](CO)NC(=O)[C@H](Cc1ccccc1)NC(=O)[C@@H](NC(=O)CNC(=O)[C@H](CCC(=O)O)NC(=O)CNC(=O)[C@@H](N)Cc1c[nH]cn1)[C@@H](C)O)[C@@H](C)O)[C@@H](C)CC)[C@@H](C)CC)C(=O)N[C@@H](C)C(=O)N[C@H](C(=O)N[C@@H](CCCCN)C(=O)N[C@H](C(=O)N[C@H](C(=O)N[C@@H](CC(=O)O)C(=O)N[C@@H](CCCCN)C(=O)O)[C@@H](C)O)[C@@H](C)CC)[C@@H](C)O | immunoaffinity LC-MS/MS | healthy human subjects, plasma | intravenous infusion, 1 mg single dose, infused over 15 min | – | terminal half-life | 2.6 h |
| [11CH3]c1ccc2nc(C3CCC3)n(-c3ccc4[nH]ncc4c3)c2n1 | – | standard human adult, muscle | – | – | absorbed radiation dose | 2.1 µSv/MBq |
| CC[C@H](C)[C@H](NC(=O)[C@H](CC(C)C)NC(=O)[C@H](Cc1c[nH]c2ccccc12)NC(=O)[C@H](C)NC(=O)[C@@H](NC(=O)[C@H](Cc1ccccc1)NC(=O)[C@H](CC(=O)O)NC(=O)[C@H](CCCNC(=N)N)NC(=O)[C@H](C)NC(=O)[C@H](C)NC(=O)[C@H](CC(C)C)NC(=O)[C@H](C)NC(=O)[C@H](CC(=O)O)NC(=O)[C@H](CC(C)C)NC(=O)[C@@H](NC(=O)[C@@H](NC(=O)[C@H](C)NC(=O)[C@H](CC(C)C)NC(=O)[C@H](CCC(=O)O)NC(=O)[C@H](CO)NC(=O)[C@H](CO)NC(=O)[C@H](Cc1ccccc1)NC(=O)[C@@H](NC(=O)CNC(=O)[C@H](CCC(=O)O)NC(=O)CNC(=O)[C@@H](N)Cc1c[nH]cn1)[C@@H](C)O)[C@@H](C)O)[C@@H](C)CC)[C@@H](C)CC)C(=O)N[C@@H](C)C(=O)N[C@H](C(=O)N[C@@H](CCCCN)C(=O)N[C@H](C(=O)N[C@H](C(=O)N[C@@H](CC(=O)O)C(=O)N[C@@H](CCCCN)C(=O)N[C@@H](CCCCN)C(=O)O)[C@@H](C)O)[C@@H](C)CC)[C@@H](C)O | immunoaffinity LC-MS/MS | healthy human subjects, plasma | subcutaneous, 10 mg once weekly, day 36 after 6 doses, steady state, geometric mean | – | AUClast | 0.0143 µM·h |
| Cc1ccccc1/N=N/c1ccc(/N=N/c2c(O)ccc3ccccc23)c(C)c1 | – | extracted rat blood QC samples | 0.2 µg/L, 12 h, room temperature, short-term stability | – | measured concentration | 0.227 µg/L |
| CC/C=C\C/C=C\C/C=C\C/C=C\C/C=C\CCCCOC(CC)C(=O)O (stereo not drawn) | radioactivity, 14C-labelled | Wistar rat, male, whole blood | oral, 100 mg/kg, 8 h | – | tissue concentration | 28.1 µg equivalents/g tissue |
| CCOC(=O)CN1CCN(CC(=O)OCC)CCN(Cc2cc(-c3nc4ccccc4s3)cc(OC)c2O)CC1 | UV-Vis pH titration | – | 25 °C, ionic strength 0.1 M NaCl | – | pKa2 | 7.41 |
| CCCC1OC2CC3C4CCC5=CC(=O)C=CC5(C)C4C(O)CC3(C)C2(C(=O)COC(=O)CN)O1 (stereo not drawn) | – | human plasma | 200 µg/mL, 37 °C | – | time to rapid hydrolysis | ≤ 6 h |
| CCCC(CCC)NC(=O)c1ccc(O)c(O)c1 | – | male Sprague-Dawley rats, plasma | oral, 200 mg/kg of parent drug | relative to: 200 over 20 mg/kg dose | Cmax ratio | 14.3 |
| CC1(C)C(=CC=C(C=CC2=[N+](CCC[N+](C)(C)C)c3ccc(S(=O)(=O)[O-])cc3C2(C)C)CCC(=O)[O-])N(CCC[N+](C)(C)C)c2ccc(S(=O)(=O)[O-])cc21 | – | 100% serum | pH 7.4 | – | quantum yield | 22.8% |
| Cc1ccc(-c2ccc(-c3cc4sccc4o3)cn2)nc1 | – | MeCN | added: quinine bisulfate reference | – | fluorescence quantum yield | 0.6 |
| O=C(NCCCN(CCCCN(CCCNC(=O)c1cccc(=O)n1[O-])C(=O)c1cccc(=O)n1[O-])C(=O)c1cccc(=O)n1[O-])c1cccc(=O)n1[O-].[89Zr+4] | radio-TLC | PBS | 1 h, pH 7.4, 37 °C, added: Co^2+ 10-fold excess | – | intact complex | 98.5 ± 2.2% |
| NCCCC(=O)OCC(=O)c1ccc(O)c(OC(F)(F)F)c1.O=C(O)C(F)(F)F | photolysis, measured: rearranged acid appearance | aqueous HEPES buffer with LiClO4 | pH 8.2 | – | quantum yield | 0.01 |
| CC[C@@H](C)N([11CH3])C(=O)c1nc(-c2ccccc2Cl)c2ccccc2n1 | ultrafiltration | rhesus monkey, plasma | baseline scan | – | plasma free fraction | 0.08 |
| COC(=O)c1ccc(-c2cn(Cc3cc(Cl)ccc3O[11CH3])nn2)cc1 | PET, Logan plot | rhesus monkey, hypothalamus | dose not given, 40 min | – | volume of distribution | 0.563 mL/cm³ |
| CCc1cc(Nc2nc(-c3ccc(-n4cnc(C)c4)c(F)c3)cs2)c(C)cc1C | – | human, both sexes, plasma | oral, 400 mg once daily, day 14, multiple dose, geometric mean | – | terminal elimination rate constant | 1.81e-05 s⁻¹ |
| CC(C)[C@H](NC(=O)[C@@H]1CCCN1C(=O)[C@H](CCCNC(=N)N)NC(=O)[C@H](CS)NC(=O)[C@H](Cc1c[nH]c2ccccc12)NC(=O)[C@H](CCCNC(=N)N)NC(=O)[C@@H](Cc1ccccc1)NC(=O)[C@H](Cc1c[nH]cn1)NC(=O)[C@H](CCC(=O)O)NC(=O)[C@H](CS)NC(=O)[C@H](CS)NC(=O)CNC(=O)[C@@H]1CC(=O)N[C@@H](CCCNC(=N)N)C(=O)NCC(=O)N[C@@H](CC(=O)O)C(=O)N[C@H](Cc2ccc(O)cc2)C(=O)N1)C(N)=O [technetium-99m labelled] | – | C57 mouse, female, B16/F1 melanoma, tumor | intravenous, 0.037 MBq, 2 h | – | tissue uptake | 11.5 ± 1.01 %ID/g |
| COc1cc(/C=C/C(=O)NCCCCCCNC2=C3C[C@@H](C)C[C@H](OC)[C@H](O)[C@@H](C)/C=C(\C)[C@H](OC(N)=O)[C@@H](OC)/C=C\C=C(/C)C(=O)NC(=CC2=O)C3=O)ccc1O | – | Kunming mice, serum | 10 mg/kg once daily, 3 days | – | serum AST | 199 ± 33.1 U/L |

| SMILES | assay | system | conditions | how to read | endpoint | result |
| --- | --- | --- | --- | --- | --- | --- |
| Cn1c(=O)oc2ccc(-c3ccc(CC(C#N)NC(=O)C4CNCCCO4)c(F)c3)cc21 (stereo not drawn) | measured: skin exfoliation | human | 40 mg, treatment-related, single dose, fasted | – | subjects with adverse event | 0% |
| CN1CCC[C@]1(C)/C=C/S(=O)(=O)NC(=O)Nc1c2c(cc3c1CCC3)CCC2 | – | human, plasma | oral, 12.5 mg twice daily, day 14, tau 12 h, multiple ascending dose | – | AUC(0-tau) | 12000 ng·h/mL |
| CCC1CNC(CC)CN(C(C(=O)[O-])c2ccc(C(=O)[O-])cc2)C(CC)CN(CC(=O)[O-])C(CC)CN1.[Mn+2] (stereo not drawn) | ICP-MS | BALB/c mouse, unanaesthetised | intravenous, 0.05 mmol/kg, 5 min | relative to: injected dose | Mn uptake in liver | 8.55% |
| COc1cc(-c2nc3ccccc3s2)cc(CN(Cc2ccccn2)Cc2ccccn2)c1O | – | methanol-water | 50 µM, 0.1 M NaCl | – | pKa2 | 6.13 |
| COc1cc(C)c(Cc2ccc(O)cc2)cc1[C@@H]1S[C@H](CO)[C@@H](O)[C@H](O)[C@H]1O | – | Japanese T2DM patients, urine | 0.5 mg luseogliflozin, day 7, once daily | relative to: dose | urinary excretion 0-24 h | 10.4 ± 1.65% |
| N#Cc1nc(N2CCOCC2)nc(N(Cc2ccc(F)cc2)CC2CCCNC2)n1 (stereo not drawn) | – | female CD-1 mice | intraperitoneal, 10 mg/kg, 0.5 h | – | plasma concentration | 473 ng/mL |
| COc1cc(NC(C)=O)c2c(c1O)-c1c(OC)c(OC)cc3c1C(C2)N(C)CC3 (stereo not drawn) | – | rat, plasma | 0.5 µg/mL, 4 h, room temperature, short-term storage | – | remaining compound | 101 ± 3.2% |
| COc1ccc2cc(-c3ccc(-c4ccc(C)cn4)nc3)oc2c1 | TCSPC | benzene | – | – | fluorescence lifetime | 1.3 ns |
| Cc1nc(C)c(C=[N+]([O-])C(C)(C)C)nc1C | – | healthy human, both sexes, serum | oral, 600 mg twice daily, 7 days | – | AUC(0-tau) | 23800 ng·h/mL |
| COc1cc2c(cc1OC)CN(CCCCn1ccc3cc(OCC[18F])ccc31)C2 | – | ICR mice, male, lung | intravenous, 60 min | – | uptake | 5.18 ± 0.83 %ID/g |
| Oc1cccc(-c2cccc(O)n2)n1.[Cl-].[Cl-].[Ru+2].c1cnc2c(c1)ccc1cccnc12.c1cnc2c(c1)ccc1cccnc12 | shake flask | octanol/phosphate buffer | pH 6.00 | – | logD | 1 |
| CC(C)(O)c1ncc([S@](N)(=O)=NC(=O)Nc2c3c(cc4c2CCC4)CCC3)s1 | – | healthy human, fed | oral, 50 mg twice daily, day 1, tablet formulation, geometric mean | – | AUC(0-tau) | 27000 ng·h/mL |
| CC(C)c1cnc(-c2cc(Cl)ccc2F)cc1Nc1ccncc1C(=O)NC(CO)CO | – | patients, phase I monotherapy | oral, dose not given, grade 5 | – | patients with anaemia | 0% |
| CC1=CC(C)=[N+]2C1=Cc1ccc(CCC(=O)N3CCN(C(=O)c4cc(Cc5n[nH]c(=O)c6ccccc56)ccc4F)CC3)n1[B-]2(F)F | ex vivo imaging | athymic nude NU/J mice, U87 or U-251 xenograft, muscle | intravenous, 2.5 mg/kg, 90 min | – | mean fluorescence | 3.45 AU/pixel |
| CCCC[C@H](NC(=O)CNC(=O)CNC(=O)CN1CCN(CC(=O)O)CCN(CC(=O)O)CCN(CC(=O)O)CC1)C(=O)N[C@H]1CC(=O)NCCCC[C@@H](C(N)=O)NC(=O)[C@H](Cc2c[nH]c3ccccc23)NC(=O)[C@H](CCCNC(=N)N)NC(=O)[C@@H](Cc2ccccc2)NC(=O)[C@H](Cc2c[nH]cn2)NC1=O [copper-64 labelled] | – | female C57 mouse, B16/F1 melanoma, skin | intravenous, 0.037 MBq, 0.5 h | – | tissue uptake | 2.46 ± 0.4 %ID/g |
| Cc1[nH]c(/C=C2\C(=O)Nc3ccc(F)cc32)c(C)c1NC(=O)CCN1CCN(C)CC1 | – | dog plasma | 40 ng/mL, 30 d frozen, -80 °C | – | accuracy deviation | -1.06% |

Repeated from above:
| SMILES | assay | system | conditions | how to read | endpoint | result |
| --- | --- | --- | --- | --- | --- | --- |
| COc1cc(NC(C)=O)c2c(c1O)-c1c(OC)c(OC)cc3c1C(C2)N(C)CC3 (stereo not drawn) | – | rat, plasma | 0.5 µg/mL, 4 h, room temperature, short-term storage | – | remaining compound | 101 ± 3.2% |
| COc1ccc2cc(-c3ccc(-c4ccc(C)cn4)nc3)oc2c1 | TCSPC | benzene | – | – | fluorescence lifetime | 1.3 ns |
| Cc1nc(C)c(C=[N+]([O-])C(C)(C)C)nc1C | – | healthy human, both sexes, serum | oral, 600 mg twice daily, 7 days | – | AUC(0-tau) | 23800 ng·h/mL |
| COc1cc2c(cc1OC)CN(CCCCn1ccc3cc(OCC[18F])ccc31)C2 | – | ICR mice, male, lung | intravenous, 60 min | – | uptake | 5.18 ± 0.83 %ID/g |
